Results collected from several papers.
Parts stem from different laboratories: compare values within a part only.

Series 1 — technique: protein-binding microarray; form: double-stranded DNA, one strand shown; medium: in vitro; tested at: 2200 nM top; setting: 60-bp whole probe; together with: salmon DNA 0.4 mg/ml; baseline: random background probes; reading: higher = stronger binding; endpoint: fitted relative affinity; all sequences stand within: GCCTAGCAC … GTCTTGATTCGCTTGACGCTGCTG
Target: Interferon regulatory factor 7, full length, phosphomimetic (IRF7, Homo sapiens, UniProt Q92985, residues 1-503, S471D/S472D/S475D/S476D/S477D/S483D/S484D/S487D)
Sequence of UniProt Q92985 (whole entry, unmodified, looked up): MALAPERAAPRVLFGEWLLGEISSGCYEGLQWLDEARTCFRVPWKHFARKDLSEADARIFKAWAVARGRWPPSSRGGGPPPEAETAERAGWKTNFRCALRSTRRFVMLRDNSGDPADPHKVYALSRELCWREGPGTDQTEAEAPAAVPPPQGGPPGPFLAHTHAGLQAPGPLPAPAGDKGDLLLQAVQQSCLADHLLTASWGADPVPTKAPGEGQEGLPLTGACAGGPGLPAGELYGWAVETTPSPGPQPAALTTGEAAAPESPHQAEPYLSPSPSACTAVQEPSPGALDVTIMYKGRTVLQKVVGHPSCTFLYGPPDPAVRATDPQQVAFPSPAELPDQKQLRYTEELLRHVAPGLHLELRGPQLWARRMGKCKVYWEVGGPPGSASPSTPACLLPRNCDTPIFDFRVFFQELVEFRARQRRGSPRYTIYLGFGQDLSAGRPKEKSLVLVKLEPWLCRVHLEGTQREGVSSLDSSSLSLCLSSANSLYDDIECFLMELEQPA
Strand = TTAGGTATCCTTTTCCTTGAGTGCTAG; result = 1.2 z-score
Strand = TCAGTTTCCTCTTTCTTACTGTGCTAG; result = 5.08 z-score
Strand = TTAGGACTGGGATTCGGTTAGTGCTAG; result = 0.622 z-score
Strand = GACGACTTCGGGACTGGAGACGTGCTA; result = -0.336 z-score
Strand = CTAATTTCCATTTTCTAAATGTGCTAG; result = 4.48 z-score
Strand = GTAGGTTTCCTTTCCCTTTAGTGCTAG; result = 5.11 z-score
Strand = GACGGTTTCGGTCTCGGGATGTGCTAG; result = 6.61 z-score
Strand = GACGGTATGGGGTATCGGGACGTGCTA; result = -0.442 z-score
Strand = GACGGTTTCCTTATCCTGAGGTGCTAG; result = 2.61 z-score
Strand = TTAGATTTCGGGTTCCGATTAGTGCTA; result = 4.85 z-score
Strand = GACGGTCTCCTTCTGCTGACGTGCTAG; result = 0.683 z-score
Strand = CTGCTGCAGGCAGCACGCTGGTGCTAG; result = -0.591 z-score

Series 2 — technique: aptamer microarray, sandwich; form: DNA with 2'F-ANA; medium: in vitro; tested at: 200 nM; together with: Cy3 exosite-II aptamer, 400 nM; reading: higher = stronger binding; endpoint: mean fluorescence intensity; strand: GGTTGGTGTGGTTGG
Target: Prothrombin, mature alpha-thrombin (F2, Homo sapiens, UniProt P00734)
Setting: whole 15-mer aptamer, many near background
Modification = 2'F-ANA at 5 6 7 8 10 11 14; result = 46.7 a.u.
Modification = 2'F-ANA at 1 4 5 7 9 10 11 12 13 15; result = 58.2 a.u.
Modification = 2'F-ANA at 2 4 7 9 10 11 13 15; result = 69.9 a.u.
Modification = 2'F-ANA at 4 7 10 11 12 13 14; result = 58.7 a.u.
Modification = 2'F-ANA at 3 5 6 8 9 11 12; result = 238 a.u.
Modification = 2'F-ANA at 2 3 4 7 12 14; result = 412 a.u.
Modification = 2'F-ANA at 1 2 4 5 9 10 11 14; result = 141 a.u.
Modification = 2'F-ANA at 9 13 14 15; result = 171 a.u.
Modification = 2'F-ANA at 4 6 9 10 12 13 14; result = 69.4 a.u.
Modification = 2'F-ANA at 3 4 7 10 15; result = 323 a.u.
Modification = 2'F-ANA at 1 3 7 8 11 12 13 15; result = 474 a.u.
Modification = 2'F-ANA at 1 2 3 4 5 6 9 10 12 13 14; result = 116 a.u.
Modification = 2'F-ANA at 1 5 10 11 12 13 15; result = 45.3 a.u.

Series 3 — technique: protein binding microarray; form: double-stranded DNA, one strand shown; medium: in vitro; tested at: not given; baseline: not given; reading: higher = stronger binding; endpoint: E-score
Target: Histone acetyltransferase KAT6A, winged helix 2, GST fusion (KAT6A, Homo sapiens, UniProt Q92794, residues 85-181)
Setting: 8-mer, flanks averaged, mean of 2 arrays, mostly near background
Construct (chain): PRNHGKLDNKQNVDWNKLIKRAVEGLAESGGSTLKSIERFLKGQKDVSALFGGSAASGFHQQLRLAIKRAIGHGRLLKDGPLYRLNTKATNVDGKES
Strand = GTGCTCAA; result = 0.0549
Strand = CACCTGGA; result = -0.00025
Strand = CCTACTAA; result = -0.0285
Strand = CAGCTATA; result = -0.108
Strand = AAGACCCT; result = -0.0124
Strand = ATATATGA; result = -0.0302
Strand = ACAGGCAC; result = -0.121
Strand = TCCTGAAA; result = 0.0912
Strand = ATCGCAAC; result = 0.13
Strand = ACGCTGAC; result = 0.146
Strand = ACTACAAA; result = -0.0124
Strand = ATCGCCAT; result = 0.0762

Mixed results
Substance = PhoQ, residues 284 288 289 292 302 303 ASSHFY; target = PhoP, residues 12 14 15 18 19 NMSSL (Escherichia coli, UniProt P23836); test = Sort-seq, measured: YFP reporter; test system = E. coli; conditions = PhoQ-PhoP variant library, together with: 10 µM Mg2+; scale = baseline: high Mg2+ state, higher = stronger signaling; endpoint = fold induction; result = 2.34
